Measurements gathered from unrelated publications.
Lines come from different studies, so protocols differ. ≈ marks a conversion by molar mass, not a printed value.

Structure (SMILES)	technique	sample	time	pH	temperature	notes	kinetic solubility
CCn1ccc(-c2cc(-c3cnn(C)c3)cc([C@@H](C)NC(=O)c3cc(OCCN(C)C)ccc3C)c2)n1		phosphate buffer	24 (unit not given)	pH 7.4			180 µM (≈ 90.1 µg/mL)
CCc1nn(C)c2nc(-c3ccc(C(=O)O)cc3)nc(NCc3ccccc3)c12		PBS	2 h	pH 7.4			190 µM (≈ 73.6 µg/mL)
Cc1ncsc1-c1ccc(CNC(=O)[C@@H]2C[C@@H](O)CN2C(=O)[C@@H](NC(=O)CN2CCN(C3CN(CCNC(=O)c4cc5c(cc4CS(C)(=O)=O)-c4cn(C)c(=O)c6[nH]cc(c46)CN5c4ncc(F)cc4F)C3)CC2)C(C)(C)C)cc1		Sf9 cell culture medium					120 µM (≈ 136 µg/mL)
Cc1ccc2nc(C)c(C(=O)NCc3cccs3)n2c1	CLND	phosphate-buffered saline	1 (unit not given)	pH 7.4			339 µM (≈ 96.7 µg/mL)
CC(C)C[C@H](NC(=O)[C@H](C)NC(=O)[C@H](Cc1cn(CCc2ccc(O)c(C=O)c2)nn1)NC(=O)[C@H](Cc1ccccc1)NC(=O)CCNC(=S)Nc1ccc2c(c1)C(=O)OC21c2ccc(O)cc2Oc2cc(O)ccc21)C(=O)N[C@@H](CC(=O)O)C(=O)N[C@@H](Cc1c[nH]c2ccccc12)C(=O)N[C@@H](CO)C(=O)N[C@@H](Cc1c[nH]c2ccccc12)C(=O)N[C@@H](CC(C)C)C(=O)N[C@@H](CCC(N)=O)C(=O)N[C@H](C(=O)N[C@@H](CCC(=O)O)C(N)=O)[C@@H](C)O	dynamic light scattering	PBS with 1% DMSO					0.125 µM (≈ 0.268 µg/mL)
Cc1ccc2nc(C(F)(F)F)c(C(=O)NCc3cccc(Cl)c3)n2c1	CLND	phosphate-buffered saline	1 (unit not given)	pH 7.4			9 µM (≈ 3.31 µg/mL)
CC(C)[C@@H](CN1CC[C@@](C)(c2cccc(C(N)=O)c2)[C@@H](C)C1)NC(=O)[C@H]1Cc2ccc(O)cc2CN1		10 mM phosphate buffer	90 min	pH 3	room temperature	1% DMSO	36 µM (≈ 17.7 µg/mL)
CCc1ccc([C@@H]2C[C@H](C(F)(F)F)n3ncc(C(=O)NCc4ccc(OC)cc4)c3N2)cc1	CLND	phosphate buffered saline	1 (unit not given)	pH 7.4			0 µM
CC(C)C[C@@H]1NC(=O)[C@H](C(C)C)N(C)C(=O)[C@@H](CC(C)C)NC(=O)[C@@H](Cc2ccccc2)NC(=O)[C@@H]([C@H](OCc2ccccc2)c2ccccc2)NC1=O							7 µM (≈ 5.18 µg/mL)
